Results pooled from the literature.
Every numbered part comes from another study and shows a few of its results, in no order.

Series 1 — method: competition protein-binding microarray; form: double-stranded DNA, one strand shown; medium: in vitro; tested at: 2 µM; together with: Cbf1 competitor, 0.05 µM; direction: higher = stronger binding; quantity: fluorescence intensity; all sequences stand within: … GTCTTGATTCGCTTGACGCTGCTG
Target: Phosphate system positive regulatory protein PHO4, full length, GST-tagged (PHO4, Saccharomyces cerevisiae, UniProt P07270, residues 1-312)
Setting: whole 60-bp probe, lowest competitor level
Residues (chain): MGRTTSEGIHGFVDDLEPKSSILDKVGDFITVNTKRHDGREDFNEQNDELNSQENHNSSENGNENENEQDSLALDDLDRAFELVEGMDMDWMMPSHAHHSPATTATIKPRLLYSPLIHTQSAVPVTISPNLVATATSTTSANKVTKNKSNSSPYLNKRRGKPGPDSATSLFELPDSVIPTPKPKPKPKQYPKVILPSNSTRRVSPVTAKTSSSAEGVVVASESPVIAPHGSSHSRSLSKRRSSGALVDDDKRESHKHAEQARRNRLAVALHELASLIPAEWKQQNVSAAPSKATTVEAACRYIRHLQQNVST
TTCGGGACATCTTGTCATGCTCCTCGCAATTCACTC: 5250 a.u.
AGTATCCTCGACCTACACGTCTTCACCATCGGCACC: 5560 a.u.
GCCAAGGACCATTACCCCGTGAAGAGATTCTATTGG: 5680 a.u.
AAATTACTAAGTTTTCACGTGTGGTACCCCGTATGA: 12700 a.u.
AAAAGAGAATTTCCTGGCGTGCAAATCTCTGCAGAT: 4730 a.u.
TTAGGGCATTTTCGTCACACGGTAGTGCTCCAGATG: 6070 a.u.
AGCACTTACGGTTACAACGTGAGCCCTGTCGAAGAA: 9150 a.u.
CTTGGATGGATAGGACACGTGACGGCTTGAATGTAG: 16900 a.u.
ATATCATTTCGCCAACACGTGAGATATCATCTGGCT: 12400 a.u.
CGGGGTTAAGTTTGACACGTGGGTGGCTTGCAGCAG: 17300 a.u.
TTGCCATCTGTCCGTCACACTTTGTTCAACAACTAC: 4520 a.u.
GGCGAGATAAAGCAGAACGTGAAGCTCAGTTAAGTA: 8690 a.u.
CTAACGAAGGTTTGTTGGGTGGGTGACAAGCCAAGT: 3690 a.u.
CATACCCAACCTTGGGAAGTGGGTGAAGATATTTGT: 3650 a.u.
CGGGGTTAAGTTTTTCACGTGCAATGCTTGCAGCAG: 11600 a.u.
CTTCTGTAAATTTGTCACGAAACTTGACGCGCCCCG: 3430 a.u.
AAATTACTAAGTTGGTCGGTGGGTGACGCCGTATGA: 3700 a.u.
ACAGCAAGCAACCATCACGTGCTAAATCGCAAACTT: 18600 a.u.
TGTTACTGGGACAACGGCGTGCTAAGTGCATTTACT: 8680 a.u.
GGTTGTAATGTTGTTGATGTGACGGGCCATATTGAA: 5060 a.u.
ACTGAGTCTACCAGTTATGTGACAGTATATGTCAGC: 3930 a.u.
AAGAACATTGATAGTCCCGTGACGGCCCTAAGTGCG: 6070 a.u.
TCAAGTATCTTTTAGCACGTATCAGATAACTAATGG: 7760 a.u.
TGCGCAACAACTTGTCCTGTGGGTGTATGTCTAGAA: 5080 a.u.
CATGCCCTTTCCTCCCTCGTGGGACCTCCCAGGAGA: 11200 a.u.

Series 2 — method: protein binding microarray; form: double-stranded DNA, one strand shown; medium: in vitro; tested at: not given; baseline: not given; direction: higher = stronger binding; quantity: E-score
Target: Histone acetyltransferase KAT6A, both winged helices, GST fusion (KAT6A, Homo sapiens, UniProt Q92794, residues 1-181)
Setting: 8-mer, flanks averaged, mean of 2 arrays, mostly near background
Target sequence (chain): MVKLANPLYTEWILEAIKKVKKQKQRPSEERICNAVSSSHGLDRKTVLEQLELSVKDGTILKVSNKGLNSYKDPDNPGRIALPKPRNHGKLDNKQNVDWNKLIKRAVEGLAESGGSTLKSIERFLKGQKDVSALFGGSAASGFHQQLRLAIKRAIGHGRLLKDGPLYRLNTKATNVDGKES
AATATAAG: 0.0205
GCAACACA: -0.0909
AAAACTAG: -0.123
CGTTGCCC: 0.155
ATATTGGC: -0.125
AGCGTTCA: -0.0459
GAGGTTCC: 0.0783
CAGTATCA: -0.0747
AACAGACG: 0.0256
AGCACTGC: 0.00483
ACATCTCT: -0.0369
CCCAGCTC: -0.217
ATGCATAC: -0.0726
CACATAGG: -0.167
CGGGTACA: 0.208
GAGTAACA: 0.0405
CCCAGGGG: -0.212
ACCCCAGG: -0.0867
CTGGGAAA: -0.109
ATCCCGTG: 0.211
AGTGCCCG: 0.122
ATACAATG: -0.0806
ATGCGTCG: 0.192
GTCGACCA: 0.123
AAAATGCA: -0.0874

Series 3 — method: RNA Bind-n-Seq; form: RNA; medium: in vitro; tested at: 1 µM; setting: whole 134-nt RNA, ends assumed; together with: 150 mM KCl; baseline: input library; direction: higher = stronger binding; quantity: log2 enrichment
Target: Ras GTPase-activating protein-binding protein 1, RRM domain (G3BP1, Homo sapiens, UniProt Q13283)
Sequence of UniProt Q13283 (whole entry, looked up): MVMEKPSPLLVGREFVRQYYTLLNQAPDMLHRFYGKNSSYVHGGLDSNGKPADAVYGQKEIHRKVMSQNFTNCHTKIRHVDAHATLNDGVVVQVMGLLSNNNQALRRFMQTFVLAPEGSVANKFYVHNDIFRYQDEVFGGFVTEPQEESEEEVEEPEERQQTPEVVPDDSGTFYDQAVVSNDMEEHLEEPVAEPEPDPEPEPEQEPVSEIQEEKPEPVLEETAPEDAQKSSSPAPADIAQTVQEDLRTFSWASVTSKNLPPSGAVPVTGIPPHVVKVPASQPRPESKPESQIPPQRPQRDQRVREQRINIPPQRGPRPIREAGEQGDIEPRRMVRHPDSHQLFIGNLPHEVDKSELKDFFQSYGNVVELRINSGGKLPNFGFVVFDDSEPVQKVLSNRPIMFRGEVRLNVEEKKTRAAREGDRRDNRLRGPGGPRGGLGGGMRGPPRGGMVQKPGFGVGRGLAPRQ
All sequences stand within: GGGAGUUCUACAGUCCGACGAUC … UGGAAUUCUCGGGUGUCAAGG
GCAGGAAGUAAAAACAAAUGGAAAUGCUUCGGAUAGUGGCAGGGGUGGGGGUUGCUAAGGAAAGGGUGGGAUGGGAGGGGGUAAAGAGUU: 1.57
CAAAGACAACACGCACCCACACAGACACAGAGGGAAGGGGUUGGGAUGGGGACAGGGUGCACAGCAGGGCGGGGUAGGACCCCAGCCCCU: -0.166
UGGGAGGUGGAUUUUGUUUAUUUUUUUAGCUCAUUUCCAGGGGUGGGAAUUUUUUUUUAAUAUGUGUCAUGAAUAAACUUGUUUUUGAAA: 1.52
CACAGACAACACGCACCCACACAGACACAGAGGGAAGGGGUUGGGAUGGGGACAGGGUGCACAGCAGGGCGGGGUAGGACCCCAACCCCU: -0.341
AGUCCUGUGCUACACAUCGUAUGUACCGAAUCGGGAAAAAGGGAAAAAGGAAAAAGGAAAGUAUUAUGUUACGCCGUUCGGAUCUGCACU: 0.00923
UCCUGUGCUACACAUCGUAUGUACCGAAUCGGGGAAAAAGGGGAAAGGGGAAAAAGGGGAAAGUAUUAUGUUACGCCGUUCGGAUCUGCA: 0.696
GUCCUGUGCUACACAUCGUAUGUACCGAAUCGGAAAAAAGGAAAAAAGGAAAAAAGGGAAAGUAUUAUGUUACGCCGUUCGGAUCUGCAC: 0.0402
UGGGAGGUGGAUUUUGUUUAUUUUUUUAGCUCAUUUCCAGGGGUGGGAAUUUUUAUUUAAUAUGUGUCAUGAAUAAAGUUGUUUUUGAAA: 1.57
CUCAAGUCCUGUGCUACACAUCGUAUGUACCGAAUCGGUUGGGGUUGGGUUGGGAAAGUAUUAUGUUACGCCGUUCGGAUCUGCACUUCC: 0.45
GUCCUGUGCUACACAUCGUAUGUACCGAAUCGGGGUUUGGGGUUUUUGGGGUUUGGGGAAAGUAUUAUGUUACGCCGUUCGGAUCUGCAC: 1.71
UACUAUGAAGCCUUGUGCAAAUCCCUCGACUGGCAGAUAGACGUGGACCUACUCAAUAAAAUGAAGAAGGCAAAUGAAGAUGAGUUGAAG: 0.0268
UCCUGUGCUACACAUCGUAUGUACCGAAUCGGGUUUGGGUUUUUUUGGGAAAAAAAGGGAAAGUAUUAUGUUACGCCGUUCGGAUCUGCA: 0.0308
CAAGUCCUGUGCUACACAUCGUAUGUACCGAAUCGGCCCCGGGCCCCGGCCCCGGAAAGUAUUAUGUUACGCCGUUCGGAUCUGCACUUC: -1.2
UGGCCCUGGUGGCAUGCGGGGAGGAAGAGGUGGCCUCAUGGAUCGUGGUGGUCCCGGUGGAAUGUUCAGAGGUGGCCGCGGUGGAGACAG: 0.501

Series 4 — method: RNA Bind-n-Seq; form: RNA; medium: in vitro; tested at: 365 nM; baseline: no-protein control; direction: higher = stronger binding; quantity: RBNS enrichment (R)
Target: RNA binding protein fox-1 homolog 2, RRM domain, GST-SBP tag (RBFOX2, Homo sapiens, UniProt O43251-10, residues 100-194)
Setting: natural RNA segment, single round, ends assumed
All sequences stand within: GGGAGUUCUACAGUCCGACGAUC … UGGAAUUCUCGGGUGCCAA
Construct (chain): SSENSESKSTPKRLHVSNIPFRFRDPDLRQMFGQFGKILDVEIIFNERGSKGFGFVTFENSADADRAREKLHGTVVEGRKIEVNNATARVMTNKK
UGCAACUGCUGGGCUUGCCUUCUGUUAGUGUGGUAGUACAUGACAGAGGCAUUAGACUAUUUUUUAGCUGCCCUCAUAAAUAUAUAACGAAUAGGUAAAUGCCAAUACCC: 0.935
CUGCAUGUCAGUUUCUCUCCUUCCACAGUUAUGUUGGCUUCCAUGCUUUUUCAGAUUGUGUGGUAGCCAUAGGACCUGACCCAGUUUGUGCCUCCUGGGAUCCUCAUCCC: 0.816
UGGUGUGUUGUGAUCCAGGGAAUGAAAAGAAAUUUGACCCUGGAUUGGUUCUCUCCUUGGACUUAAGGAAUCUUACCUUUUCCUUCCACAAAGUUCUCCCAGGCAAGGAC: 0.356
GUGCCUGACUAGGGAGCCCUCCCAUUGCCUUCCUGGCCCGGGAUAGAAGAGGGGAGGUAAGUCUGGGGGCUACGAAGCCGGGCCCCCACACCCUGGCUGAAGUCAGCUUG: 0.301
UGAUGGGCGUCCAAGCAGACCACACGGAUCACUGAGGCACUGAUGUAGGCCCCUCUGCAACGACUUCCUUUGCACCAAAGACAACAGUCUACAAGUUUCUACUUUCUUGU: 0.494
CCUUUCUGCUUCGGGCAGCCUGGACUCCAGCCCUGAGUAUAGAGGCGGUGUGGAUGGCUGGCCCUCAUCCUACCUGUGUCUUUAUUGCUUUGAUCACCACAGUCUCUAAC: 0.644
CCUUUGUGGAUAUAUAAGCAAAUUGAGCUUGGGUGAUUUUUAUGGAGACAAUAAUUAGACAAUACUGUAUAAUUAGUUUUACUUAAUAGAUUAUCAUCUUGUGAGAAGAG: 0.26
UUUUUUAAGCUUCGGUGGCAGCUCAGCCAUUAAGAGAGUUUACAUCCAUUUCCCCACUUAUUUAUAACCAGCCUUCCUUUCAGUCCUAGUGCCUGGAUCAAUGAGAUGGA: 0.5
UUUAAAUGAAAACUCAAAAUAAGACAAGUAAUUUGUUGAUAAAUAUUUUUAAAGAUAACUCAGCAUGUUUGUAAAGCAGGAUACAUUUUACUAAAAGGUUCAUUGGUUCC: 10.5
AAAGGGGUGUGGCAGCUCCCAUCAGGUCUGGAGGUGGUCUAUAAGCACAGUUGACAGUUGUGCAUUGGGAUGGGUGGAGAAAGACGACAAGAGAGCAGAGAAUCUGCUGA: 1.04
AUGAGGAAGUUUUAAAAGACCAUGUUCCUAAGCUUCCAAGAAGGUUUUGGAUACUAGAAGUAUUAAUCUAUGGCUUUUCUCCCAGUAAAACCAUAGGCCUGAAGUUCACA: 0.252
GACCAAGGACAUCAUGCUCUGUAUUUGACAGUAAAGUUUUACCUUAAAAAUGAGACCCCCAACUACCUAAAGCACCCAUCUUUGUAACUAGACCAUAACUAUACUGCUUU: 0.339

Excerpt of the above (series 2):
CCCAGCTC: -0.217
ATGCATAC: -0.0726
CACATAGG: -0.167
CGGGTACA: 0.208
GAGTAACA: 0.0405
CCCAGGGG: -0.212
ACCCCAGG: -0.0867
CTGGGAAA: -0.109
ATCCCGTG: 0.211
AGTGCCCG: 0.122
